{"data": "Experimental data gathered from unrelated publications", "note": "A part holds a random share of what one study measured."}
{"data": "Study 1", "target": "Max dimerization protein 1, bHLH-zipper, MAX partner unstated (MXD1, Homo sapiens, UniProt Q05195, residues 56-136)", "technique": "protein-binding microarray", "form": "double-stranded DNA, one strand shown", "medium": "in vitro", "concentration": "not given", "notes": "k-mer, scored over probes, only values ≥0.25", "direction": "higher = stronger binding", "Target sequence (chain)": "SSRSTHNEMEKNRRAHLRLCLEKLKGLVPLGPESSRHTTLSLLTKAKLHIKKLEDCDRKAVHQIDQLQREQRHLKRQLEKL"}
{"Sequence": "CTCGTGGA", "E-score": 0.367}
{"Sequence": "ATGCGTCA", "E-score": 0.288}
{"Sequence": "CACCACAC", "E-score": 0.334}
{"data": "Study 2", "target": "RING finger protein unkempt homolog, zinc fingers 1-6, SBP tag (UNK, Homo sapiens, UniProt Q9C0B0, residues 30-357)", "technique": "RNA Bind-n-Seq", "form": "RNA", "medium": "in vitro", "concentration": "100 nM", "notes": "RNA with constant flanks, vertebrate orthologous sites, ends assumed", "reference": "input RNA pool", "direction": "higher = stronger binding", "UniProt Q9C0B0, sequence (30-357, looked up)": "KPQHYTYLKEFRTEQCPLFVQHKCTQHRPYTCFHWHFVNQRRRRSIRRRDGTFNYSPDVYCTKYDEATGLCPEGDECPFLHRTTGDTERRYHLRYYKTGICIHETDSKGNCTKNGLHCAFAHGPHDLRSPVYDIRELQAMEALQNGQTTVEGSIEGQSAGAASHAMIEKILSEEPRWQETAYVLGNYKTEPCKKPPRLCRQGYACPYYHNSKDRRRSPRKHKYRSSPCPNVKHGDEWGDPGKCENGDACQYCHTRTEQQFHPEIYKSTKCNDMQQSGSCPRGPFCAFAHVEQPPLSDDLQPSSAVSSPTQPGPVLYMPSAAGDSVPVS"}
{"Sequence": "GGGAGUUCUACAGUCCGACGAUCAUUCAAACCUGUGGUACCAUGGCCUCAUGUUGAAGGAAUAGAAGUGGACUUAGAGUCUAUUAGAAGAAAAAACAAGGACAAAAAUGAACAAGAGCGUCAUGCUGGAGGAGAUAACCAGAACAACAGAGGAUUGAGCAUCA", "bound/input enrichment [ratio]": 0.706}
{"Sequence": "GGGAGUUCUACAGUCCGACGAUCCCUACAAUAAUGAAAAUCUACAGAAAAUUUUUUAUUUUUCAUUUUUCCCUUAGGCAUAUUGAGUCUAUUUCCCCCCAGGCAGAUCAUUCUGAGUGUGCGAGUGUGUGUGCACAUGUUAAACAACAGAGGAUUGAGCAUCA", "bound/input enrichment [ratio]": 0.374}
{"Sequence": "GGGAGUUCUACAGUCCGACGAUCAUUGAACAAAAGCGUUUCCACUGGGUUUCGCCUGUAAGAAAAAAAACAUACCCGAGCACAUACAGCUUUUUAAUAGCACUAACCAAUGCCUUUUUAGAUGUAUUUUUGAUGUAUAUAUCUCAACAGAGGAUUGAGCAUCA", "bound/input enrichment [ratio]": 0.706}
{"Sequence": "GGGAGUUCUACAGUCCGACGAUCGCCUGUCCUUAUACUCUUCUGUGAAAGAGAUGAAUUAGGGAAAACUGUCUCCUUUUUAUAGUUUGUUUCUAAAUUAUGACCAAAAAAUAUUUUGCUAUUUCUUUCUUUAUAUAUGGACAUCAACAGAGGAUUGAGCAUCA", "bound/input enrichment [ratio]": 0.725}
{"data": "Study 3", "target": "Interferon regulatory factor 7, full length, phosphomimetic (IRF7, Homo sapiens, UniProt Q92985, residues 1-503, S471D/S472D/S475D/S476D/S477D/S483D/S484D/S487D)", "technique": "protein-binding microarray", "form": "double-stranded DNA, one strand shown", "medium": "in vitro", "concentration": "2200 nM top", "notes": "60-bp whole probe", "added": "salmon DNA 0.4 mg/ml", "reference": "random background probes", "direction": "higher = stronger binding", "all sequences stand within": "GCCTAGCAC … GTCTTGATTCGCTTGACGCTGCTG", "Construct (chain)": "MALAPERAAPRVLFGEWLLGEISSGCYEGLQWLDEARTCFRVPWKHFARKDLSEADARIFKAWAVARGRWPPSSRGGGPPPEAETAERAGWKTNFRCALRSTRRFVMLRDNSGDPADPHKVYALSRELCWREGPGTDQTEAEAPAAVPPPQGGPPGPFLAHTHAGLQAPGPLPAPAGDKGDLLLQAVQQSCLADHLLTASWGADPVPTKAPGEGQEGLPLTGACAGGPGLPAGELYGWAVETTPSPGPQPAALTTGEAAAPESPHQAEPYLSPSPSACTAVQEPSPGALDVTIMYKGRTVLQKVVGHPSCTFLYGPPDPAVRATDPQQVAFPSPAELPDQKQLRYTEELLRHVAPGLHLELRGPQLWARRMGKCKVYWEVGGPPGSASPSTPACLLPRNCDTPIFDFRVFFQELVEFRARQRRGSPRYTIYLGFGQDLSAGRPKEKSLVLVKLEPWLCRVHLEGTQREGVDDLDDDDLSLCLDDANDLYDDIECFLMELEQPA"}
{"Sequence": "GACGTTTTCGGGTATCGGGACGTGCTA", "fitted relative affinity [z-score]": 5.77}
{"Sequence": "GACGGACTGGGACTCGGGACGTGCTAG", "fitted relative affinity [z-score]": -0.672}
{"Sequence": "TCACTCCTCTTTTTTTGACTGTGCTAG", "fitted relative affinity [z-score]": 2.05}
{"Sequence": "GACGGTATCGACGTTCGGGACGTGCTA", "fitted relative affinity [z-score]": -0.185}
{"Sequence": "TTAGGACTGGGGACAGGGTTAGTGCTA", "fitted relative affinity [z-score]": -0.8}
{"data": "Single results of other studies"}
{"Molecule": "PhoQ, residues 284 288 289 292 302 303 TTSMTC", "target": "PhoP, residues 12 14 15 18 19 DLLYY (Escherichia coli, UniProt P23836)", "test": "Sort-seq, refers to: YFP reporter", "test system": "E. coli", "conditions": "PhoQ-PhoP variant library, added: 10 µM Mg2+", "scale": "reference: high Mg2+ state, higher = stronger signaling", "endpoint": "fold induction", "result": 1.04}
